Published values of several laboratories.
Protocols differ between the studies behind these lines.
Target: Testis-specific serine/threonine-protein kinase 1 (TSSK1B, Homo sapiens, UniProt Q9BXA7)

| SMILES | test | setting | scale | quantity | value |
| --- | --- | --- | --- | --- | --- |
| COc1c(OCCCN2CCOCC2)ccc2c1N=C(NC(=O)c1cnc(N)nc1)N1CCN=C21 | kinase activity, inhibitor | 1 µM | baseline: untreated control | remaining activity | 99% |
| C=C1CCCCCCCCCC(CO)C1=O (centres unmarked) | cell-free assay, competition with immobilised ligand | 10 µM | – | remaining binding | 98% |
| CCn1cc(C(=O)O)c(=O)c2c(N)c(F)c(NC3CCCCC3)cc21 | kinase activity | 0.1 µM, with: ATP at Km | – | inhibition | 1.7% |
| CCN1CCN(Cc2ccc(NC(=O)c3ccc(C)c(NC(=O)c4cncc(-c5cnn(C)c5)c4)c3)cc2C(F)(F)F)CC1 | binding, competition with immobilised ligand | 1 µM | – | remaining binding | 91% |
| CCN1CCN(Cc2ccc(C(=O)Nc3ccc(C)c(NCc4cnc5[nH]ccc5c4OC)c3)cc2C(F)(F)F)CC1 | binding, competition with immobilised ligand | 1 µM | – | remaining binding | 78% |
| COc1cc(Nc2nc(C)cc(-c3cnn4nc(OC)ccc34)n2)cc(C(F)(F)F)c1 | binding, competition with immobilised ligand | 1 µM | – | remaining binding | 100% |
| CN1CCN(Cc2ccc(NC(=O)c3cccc(C#Cc4cnc(N)c5ncccc45)c3)cc2C(F)(F)F)CC1 | cell-free assay, competition with immobilised ligand | 50 nM | – | remaining binding | 92% |
| CC(C)=CC1OC(C)(C)C2C=C3C(=O)C(Cl)=CC(O)C3C3C(O)C4OC4C(=O)C132 (centres unmarked) | cell-free assay, competition with immobilised ligand | 10 µM | – | remaining binding | 100% |
| O=C(Cc1ccc(OCc2ccccc2)cc1)NC1(C(=O)O)CCN(C(=O)c2ccc(-c3cccc(Cl)c3)cc2)CC1 | enzyme activity, inhibitor | 10 µM | – | activity vs control | 105% |
| CNC(=O)C[C@H](Cc1ccc(C#N)cc1)NC(=O)c1cc(-c2ccc(CN[C@H](C)c3ccc(C)cc3)o2)ccc1Cl | enzyme activity, inhibitor | 1 µM | – | activity vs control | 102% |
| COc1c(Cl)cccc1Nc1c(-c2ccncc2C#C[C@@]2(C)CCCN2C(=O)/C=C/CN(C)C)[nH]c2c1C(=O)NCC2 | binding, competition with immobilised ligand | 3 µM | – | remaining binding | 84% |
| COc1ccc(NC(=O)Nc2ccc3c(c2)C(=O)N(C(C)CO)CC(C)C(CN(C)Cc2ccc4c(c2)OCO4)O3)cc1 (centres unmarked) | kinase activity, KinaseProfiler | 0.03 µM, species human | baseline: control | remaining activity | 103% |
| Nc1ncc2c(n1)-c1c([nH]c3ccc(C4=CCOCC4)cc13)CCC2 | binding, competition with immobilised ligand | 1 µM | – | remaining binding | 100% |
| C=CC(=O)Nc1cccc(-c2cnc3[nH]cc(C(=O)NC(C)(C)C)c3n2)c1 | enzyme activity, inhibitor | 0.1 µM | – | inhibition | 15% |
| Cc1cccc(O[C@H]2CCC[C@@H](C(C)CNCc3ccncc3)C2)c1 (relative stereo) | enzyme activity, inhibitor | 1 µM | – | inhibition | -5% |
| COc1cc(-n2cc3cc(F)cc(C(N)=O)c3n2)cc(Cl)c1C1CC(O)(CCO)Cc2ccccc21 (centres unmarked) | enzyme activity, inhibitor | 10 µM | – | inhibition | 0.53% |
| CC(=O)N1c2ccc(-c3ccc(CNC(=O)c4cn5cc(-c6cnc(N)nc6)nc(N6CCOCC6)c5n4)cc3)cc2CC[C@@H]1C | KINOMEscan | 10 µM | – | remaining binding | 96% |
| Cc1cnc2nc1Nc1cccc(c1)COC/C=C/COCc1cc(ccc1OCCN1CCOCC1)N2 | binding, competition with immobilised ligand | 0.1 µM | – | remaining binding | 100% |
| NC(=O)C[C@H]1CCc2sc3ncnc(O[C@H]4CC[C@H](N5CCOCC5)CC4)c3c21 | enzyme activity, inhibitor | 10 µM | – | inhibition | -2% |
| CNC1C[S+]2CC[S+]3CC[S+](C1)[Ru-4]321([N]=C=S)[n]2c3ccc(OC)cc3c3c4c(c5cc(F)c[n+]1c5c32)C(=O)NC4=O (centres unmarked) | KinomeScan | 0.1 µM | baseline: untreated | remaining binding | 100% |

A few entries again:
| SMILES | test | setting | scale | quantity | value |
| --- | --- | --- | --- | --- | --- |
| COc1cc(-n2cc3cc(F)cc(C(N)=O)c3n2)cc(Cl)c1C1CC(O)(CCO)Cc2ccccc21 (centres unmarked) | enzyme activity, inhibitor | 10 µM | – | inhibition | 0.53% |
